Measured values from different studies.
Parts stem from different laboratories: compare values within a part only. Positions count from the first letter of the parent shown.

Series 1
Target: ABI1, truncated, D143A, DHFR fusion (Arabidopsis thaliana)
Technique: DHFR PCA, deep sequencing
Matrix: yeast
Notes: methotrexate growth selection, single substitutions
Added: (+)-ABA 0.0091 µM
Relative to: wild-type fitted maximum
Reading: higher = stronger binding
Quantity: relative binding score
Starting sequence: PYL1, truncated, DHFR fusion (Arabidopsis thaliana); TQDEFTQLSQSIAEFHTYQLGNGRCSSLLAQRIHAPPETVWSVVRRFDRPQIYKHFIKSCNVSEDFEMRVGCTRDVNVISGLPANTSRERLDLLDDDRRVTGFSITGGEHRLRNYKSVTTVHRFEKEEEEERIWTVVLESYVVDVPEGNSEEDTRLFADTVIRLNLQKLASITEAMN; partner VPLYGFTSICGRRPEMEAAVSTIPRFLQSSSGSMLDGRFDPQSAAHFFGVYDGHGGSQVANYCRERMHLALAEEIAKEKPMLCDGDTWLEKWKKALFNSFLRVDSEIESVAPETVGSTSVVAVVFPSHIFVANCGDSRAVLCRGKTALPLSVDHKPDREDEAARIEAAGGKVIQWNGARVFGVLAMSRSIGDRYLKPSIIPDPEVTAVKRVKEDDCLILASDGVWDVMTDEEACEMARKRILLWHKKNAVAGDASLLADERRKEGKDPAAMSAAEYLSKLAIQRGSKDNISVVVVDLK
Substitution = L156P; value = 0.0323%
Substitution = S171E; value = 40%
Substitution = D97I; value = 11.4%
Substitution = D153C; value = -2.18%
Substitution = G81K; value = 1.27%
Substitution = W41H; value = -2.81%
Substitution = C25G; value = -1.83%
Substitution = V43N; value = 0.817%
Substitution = V40A; value = 0.923%
Substitution = S59H; value = 3.7%
Substitution = R132W; value = -0.118%
Substitution = C25P; value = 3.35%
Substitution = I33R; value = 3.3%
Substitution = V121F; value = -2.03%
Substitution = W134T; value = 37.8%

Series 2
Molecule: PhoQ, residues 284 288 289 292 302 303 TASMAF
Technique: Sort-seq
Refers to: YFP reporter
Matrix: E. coli
Notes: PhoQ-PhoP variant library
Added: 10 µM Mg2+
Relative to: high Mg2+ state
Reading: higher = stronger signaling
Quantity: fold induction
target = PhoP, residues 12 14 15 18 19 TQCLL (Escherichia coli, UniProt P23836); value = 14
target = PhoP, residues 12 14 15 18 19 VHTVL (Escherichia coli, UniProt P23836); value = 8.87
target = PhoP, residues 12 14 15 18 19 ICWRQ (Escherichia coli, UniProt P23836); value = 9.24

Series 3
Target: Ras GTPase-activating protein-binding protein 1, full length (G3BP1, Homo sapiens, UniProt Q13283)
Chain of UniProt Q13283 (whole entry, looked up): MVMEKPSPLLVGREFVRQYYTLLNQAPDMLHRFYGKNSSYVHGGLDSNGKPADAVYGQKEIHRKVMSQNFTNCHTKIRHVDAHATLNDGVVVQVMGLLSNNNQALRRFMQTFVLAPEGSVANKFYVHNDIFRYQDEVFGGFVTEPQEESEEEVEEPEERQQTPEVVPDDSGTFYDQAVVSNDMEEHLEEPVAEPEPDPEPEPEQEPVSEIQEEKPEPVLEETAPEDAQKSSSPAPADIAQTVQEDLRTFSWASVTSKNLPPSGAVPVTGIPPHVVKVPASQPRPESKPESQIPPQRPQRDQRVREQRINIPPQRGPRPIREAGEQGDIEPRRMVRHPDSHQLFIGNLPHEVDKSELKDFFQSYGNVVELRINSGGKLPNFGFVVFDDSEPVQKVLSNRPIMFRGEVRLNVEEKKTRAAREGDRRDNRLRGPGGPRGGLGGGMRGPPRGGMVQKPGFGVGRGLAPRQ
Technique: RNA Bind-n-Seq
Form: RNA
Matrix: in vitro
Concentration: 200 nM
Notes: whole 134-nt RNA, ends assumed
Added: 150 mM LiCl
Relative to: input library
Reading: higher = stronger binding
Quantity: log2 enrichment
All molecules: 7-deaza-guanosine replaces G
All sequences stand within: GGGAGUUCUACAGUCCGACGAUC … UGGAAUUCUCGGGUGUCAAGG
Strand = ACCAUGCAGGUGGGCAUCUUUGGGAAGUGGGGCAAGGGGGGGAUAGGGAGGGGGGUAACACUUUGGGAACAGGUGGUAAAAGGUCGUUUC; value = -0.152
Strand = CUCAAGUCCUGUGCUACACAUCGUAUGUACCGAAUCGGAAAAAGGUUUGGAGGAAAGUAUUAUGUUACGCCGUUCGGAUCUGCACUUCCA; value = -0.308
Strand = UCAAGUCCUGUGCUACACAUCGUAUGUACCGAAUCGGGUUGGGUUGGGGUUGGGAAAGUAUUAUGUUACGCCGUUCGGAUCUGCACUUCC; value = -0.104
Strand = GGGGACGGCAAAACAGAACAGAAAGGCGGAGAUAAAAAGAGGGGUGUUAAAAGACCACGAGAAGAUCAUGGCCGUGGAUAUUUUGAGUAC; value = 0.577
Strand = AGUCCUGUGCUACACAUCGUAUGUACCGAAUCGGGAAAGGGUUUUUGGGUUUUUGGGAAAGUAUUAUGUUACGCCGUUCGGAUCUGCACU; value = -2.18
Strand = UGGCCCUGGUGGCAUGCGGGGAGGAAGAGGUGGCCUCACGGAUCGUGGUGGUCCCGGUGGAAUGUUCAGAGGUGGCCGUGGUGGAGACAG; value = 0.561
Strand = UGGCCCUGGUGGCAUGCGGGUAGGAAGAGGUGGCCUCAUGGAUCGUGGUGGUCCCGGUGGAAUGUUCAGAGGUGGCCGUGGUGGAGACAG; value = 0.343
Strand = CAAGUCCUGUGCUACACAUCGUAUGUACCGAAUCGGGGCCGGGCCGGGGCCGGGGAAAGUAUUAUGUUACGCCGUUCGGAUCUGCACUUC; value = 0.0211

Series 4
Target: Phosphate system positive regulatory protein PHO4, full length, GST-tagged (PHO4, Saccharomyces cerevisiae, UniProt P07270, residues 1-312)
Technique: competition protein-binding microarray
Form: double-stranded DNA, one strand shown
Matrix: in vitro
Concentration: 2 µM
Notes: whole 60-bp probe, lowest competitor level
Added: Cbf1 competitor, 0.05 µM
Reading: higher = stronger binding
Quantity: fluorescence intensity
All sequences stand within: … GTCTTGATTCGCTTGACGCTGCTG
Construct (chain): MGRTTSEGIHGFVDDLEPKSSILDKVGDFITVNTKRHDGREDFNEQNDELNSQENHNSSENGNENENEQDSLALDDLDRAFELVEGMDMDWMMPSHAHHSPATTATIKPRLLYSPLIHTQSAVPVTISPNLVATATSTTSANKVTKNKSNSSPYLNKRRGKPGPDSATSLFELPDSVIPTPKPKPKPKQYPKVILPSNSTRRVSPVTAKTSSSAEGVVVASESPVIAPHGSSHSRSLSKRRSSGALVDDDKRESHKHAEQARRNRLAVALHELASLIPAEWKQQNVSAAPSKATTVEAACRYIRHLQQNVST
Strand = CATACCCAACCTTGTTCGGTGGGTGAAGATATTTGT; value = 3530 a.u.
Strand = CTTTCCCGATCTTGATAGGTGGGTGTAGCACATTTG; value = 4190 a.u.
Strand = CGGGGTTAAGTTTTTCACGTGCACTGCTTGCAGCAG; value = 12100 a.u.
Strand = TCACTTTAACCACCATTTCTTTAAGCTAAAGTTTAG; value = 3620 a.u.
Strand = TGTTGAATGCTAACAGACGTGGGTAAGCCAAGACTG; value = 5950 a.u.
Strand = CTACCACTCTGGAACGCCGTGACGGGCTCAGCCCCG; value = 4150 a.u.
Strand = CTAACGAAGGTTTGTAGCGTGGGTGACAAGCCAAGT; value = 6400 a.u.
Strand = CCTGCTGGCCTGTACGACGTGCAAACATTCCATCGC; value = 5400 a.u.
Strand = CATACCCAACCTTGTCACGCCACTTAAGATATTTGT; value = 6270 a.u.
Strand = AAATTACTAAGTTGCCGTGTGGGTGACGCCGTATGA; value = 5840 a.u.
Strand = CCAAGCGTTCAAGTCAGTGTGACGGACACCAGAGTA; value = 3900 a.u.
Strand = GCACTACCATGTTTGCACGTGTCGGTGTCCTCATCA; value = 17800 a.u.
Strand = ACAAATTTAGTATCTCACGTGTATACAATTGCTCTG; value = 15400 a.u.
Strand = CATACCCAACCTTGGATGGTGGGTGAAGATATTTGT; value = 3950 a.u.
Strand = TGGAAGGAAAAACAGCACGCTTGTAAGGGGGATGGG; value = 7670 a.u.
Strand = AAGAGCGTAAGCTTGCTCGTGGTGAGAAGGGAACTA; value = 7690 a.u.
Strand = GCCAGCCGGTGCGGCCACGTGTTGAATCTTGACTTT; value = 17800 a.u.
Strand = GTCTTGTCTCATTGTCACAATACTTTCCCCACTTCA; value = 4350 a.u.
Strand = AAATTACTAAGTTGAAATGTGGGTGACGCCGTATGA; value = 5420 a.u.

Series 5
Target: Histone acetyltransferase KAT6A, winged helix 1, GST fusion (KAT6A, Homo sapiens, UniProt Q92794, residues 1-85)
Technique: protein binding microarray
Form: double-stranded DNA, one strand shown
Matrix: in vitro
Concentration: not given
Notes: 8-mer, flanks averaged, mean of 2 arrays, mostly near background
Relative to: not given
Reading: higher = stronger binding
Quantity: E-score
Residues (chain): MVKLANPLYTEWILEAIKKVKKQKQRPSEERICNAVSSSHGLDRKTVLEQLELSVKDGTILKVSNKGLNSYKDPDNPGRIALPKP
Strand = AGCCTTCC; value = -0.0363
Strand = ACAAGAAT; value = -0.184
Strand = CTTACCCA; value = -0.146
Strand = ATCAATGA; value = -0.0574
Strand = GGAACAAC; value = 0.0477
Strand = GCCTTGAA; value = -0.21
Strand = ACACATTG; value = -0.0478
Strand = ATGGCACC; value = 0.109
Strand = CTGCAACA; value = 0.0158
Strand = ACACCGAG; value = 0.0806
Strand = GACTACTA; value = -0.0613
Strand = TAGCATGA; value = -0.273
Strand = CAGGGAAG; value = -0.126
Strand = TAAGGCTA; value = -0.137
Strand = CCATCCGG; value = -0.0109
Strand = GGGTTCAA; value = 0.0921
Strand = GCTACAAC; value = -0.112
Strand = AAATTGGC; value = -0.0867
Strand = CATATTCG; value = -0.0446
Strand = CAACTTCC; value = -0.0965
Strand = CCAGTCCG; value = 0.197
Strand = CGGTTGGA; value = 0.0253
Strand = CCAAGCGG; value = 0.187
Strand = GGGCCGTA; value = 0.312
Strand = GCCTACCC; value = 0.0394

A few entries again (series 1):
Substitution = C25P; value = 3.35%
Substitution = D97I; value = 11.4%
Substitution = G81K; value = 1.27%
Substitution = V43N; value = 0.817%
Substitution = W41H; value = -2.81%
Substitution = W134T; value = 37.8%
Substitution = R132W; value = -0.118%
Substitution = C25G; value = -1.83%
Substitution = I33R; value = 3.3%
Substitution = D153C; value = -2.18%
Substitution = V40A; value = 0.923%
Substitution = V121F; value = -2.03%
